Measured values gathered from unrelated publications.
Each line is one published result; not all experiments were run side by side. ± marks the error that the study gave. Where no end group is shown, it is not given here. [ ]: non-standard residue; d: D form.
T1: NR1I2/RXRA (Homo sapiens); chain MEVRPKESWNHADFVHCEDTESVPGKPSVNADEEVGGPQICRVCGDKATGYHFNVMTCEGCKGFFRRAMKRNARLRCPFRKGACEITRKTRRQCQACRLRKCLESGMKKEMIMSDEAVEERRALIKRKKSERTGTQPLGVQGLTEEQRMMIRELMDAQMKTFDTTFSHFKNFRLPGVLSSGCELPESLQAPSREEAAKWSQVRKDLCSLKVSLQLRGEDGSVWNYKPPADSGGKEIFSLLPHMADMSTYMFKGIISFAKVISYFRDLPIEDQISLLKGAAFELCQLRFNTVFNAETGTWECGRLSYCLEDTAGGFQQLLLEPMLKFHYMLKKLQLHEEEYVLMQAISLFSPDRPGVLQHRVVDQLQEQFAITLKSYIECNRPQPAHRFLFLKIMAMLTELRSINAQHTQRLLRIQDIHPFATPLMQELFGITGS; chain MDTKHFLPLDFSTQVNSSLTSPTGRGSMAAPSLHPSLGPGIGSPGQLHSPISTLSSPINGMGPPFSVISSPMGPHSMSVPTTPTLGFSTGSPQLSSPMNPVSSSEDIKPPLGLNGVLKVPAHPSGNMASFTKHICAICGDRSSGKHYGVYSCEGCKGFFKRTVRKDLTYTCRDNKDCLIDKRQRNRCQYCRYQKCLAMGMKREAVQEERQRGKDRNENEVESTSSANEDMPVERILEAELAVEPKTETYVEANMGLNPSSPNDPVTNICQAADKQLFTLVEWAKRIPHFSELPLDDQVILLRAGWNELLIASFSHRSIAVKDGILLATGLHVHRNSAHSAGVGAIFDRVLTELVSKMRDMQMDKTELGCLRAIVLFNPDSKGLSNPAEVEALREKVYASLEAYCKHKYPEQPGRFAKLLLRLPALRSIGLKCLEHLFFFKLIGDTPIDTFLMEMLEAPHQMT
B1: UGT1A9 (Homo sapiens, UniProt O60656); chain GKLLVVPMDGSHWFTMRSVVEKLILRGHEVVVVMPEVSWQLGRSLNCTVKTYSTSYTLEDLDREFKAFAHAQWKAQVRSIYSLLMGSYNDIFDLFFSNCRSLFKDKKLVEYLKESSFDAVFLDPFDNCGLIVAKYFSLPSVVFARGILCHYLEEGAQCPAPLSYVPRILLGFSDAMTFKERVRNHIMHLEEHLLCHRFFKNALEIASEILQTPVTEYDLYSHTSIWLLRTDFVLDYPKPVMPNMIFIGGINCHQGKPLPMEFEAYINASGEHGIVVFSLGSMVSEIPEKKAMAIADALGKIPQTVLWRYTGTRPSNLANNTILVKWLPQNDLLGHPMTRAFITHAGSHGVYESICNGVPMVMMPLFGDQMDNAKRMETKGAGVTLNVLEMTSEDLENALKAVINDKSYKENIMRLSSLHKDRPVEPLDLAVFWVEFVMRHKGAPHLRPAAHDLTWYQYHSLDVIGFLLAVVLTVAFITFKCCAYGYRKCLGKKGRVKKAHKSKTH
UniProt Q9NZC7, sequence (whole entry, unmodified, looked up): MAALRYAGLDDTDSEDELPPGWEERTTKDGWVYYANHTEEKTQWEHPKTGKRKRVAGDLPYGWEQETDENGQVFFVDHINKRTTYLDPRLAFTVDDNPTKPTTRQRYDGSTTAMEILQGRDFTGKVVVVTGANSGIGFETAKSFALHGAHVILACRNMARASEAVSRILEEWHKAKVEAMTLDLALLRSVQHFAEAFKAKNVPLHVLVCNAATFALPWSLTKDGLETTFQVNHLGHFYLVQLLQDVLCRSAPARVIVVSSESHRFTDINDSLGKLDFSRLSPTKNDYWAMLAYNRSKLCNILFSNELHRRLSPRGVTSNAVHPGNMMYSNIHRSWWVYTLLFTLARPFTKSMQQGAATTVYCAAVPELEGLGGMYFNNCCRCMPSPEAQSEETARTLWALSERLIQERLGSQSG
UniProt P69905, sequence (whole entry, looked up): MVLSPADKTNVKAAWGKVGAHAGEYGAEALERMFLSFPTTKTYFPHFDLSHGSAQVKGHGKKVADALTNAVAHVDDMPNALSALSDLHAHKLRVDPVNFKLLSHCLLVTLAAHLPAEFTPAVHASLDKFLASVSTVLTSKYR
UniProt P0DMV8, sequence (whole entry, looked up): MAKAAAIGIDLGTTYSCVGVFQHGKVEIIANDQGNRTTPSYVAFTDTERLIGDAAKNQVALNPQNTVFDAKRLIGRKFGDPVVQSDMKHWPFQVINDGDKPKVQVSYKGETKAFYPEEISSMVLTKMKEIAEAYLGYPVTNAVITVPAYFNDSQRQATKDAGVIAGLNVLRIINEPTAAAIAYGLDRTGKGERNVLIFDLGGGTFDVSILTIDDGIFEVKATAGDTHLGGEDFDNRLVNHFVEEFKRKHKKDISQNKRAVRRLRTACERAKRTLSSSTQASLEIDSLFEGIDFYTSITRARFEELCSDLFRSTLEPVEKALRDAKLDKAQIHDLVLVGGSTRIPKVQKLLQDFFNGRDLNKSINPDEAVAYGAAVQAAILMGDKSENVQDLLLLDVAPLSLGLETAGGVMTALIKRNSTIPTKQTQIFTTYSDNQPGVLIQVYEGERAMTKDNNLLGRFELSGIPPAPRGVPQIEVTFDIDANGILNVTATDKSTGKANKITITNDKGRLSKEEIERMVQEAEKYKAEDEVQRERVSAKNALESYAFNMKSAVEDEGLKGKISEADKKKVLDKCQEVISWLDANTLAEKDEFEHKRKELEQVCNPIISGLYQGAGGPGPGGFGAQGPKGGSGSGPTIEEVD
UniProt P33033, sequence (whole entry, looked up): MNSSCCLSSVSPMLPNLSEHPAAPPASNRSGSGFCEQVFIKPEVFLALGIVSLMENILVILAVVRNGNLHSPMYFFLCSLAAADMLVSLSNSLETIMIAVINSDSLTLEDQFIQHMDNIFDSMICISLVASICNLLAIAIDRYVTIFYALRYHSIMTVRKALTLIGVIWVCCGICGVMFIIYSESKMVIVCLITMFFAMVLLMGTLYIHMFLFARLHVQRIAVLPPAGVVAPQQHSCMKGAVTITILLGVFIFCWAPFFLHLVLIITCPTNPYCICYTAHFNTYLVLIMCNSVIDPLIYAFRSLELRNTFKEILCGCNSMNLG
UniProt Q15858, sequence (whole entry, looked up): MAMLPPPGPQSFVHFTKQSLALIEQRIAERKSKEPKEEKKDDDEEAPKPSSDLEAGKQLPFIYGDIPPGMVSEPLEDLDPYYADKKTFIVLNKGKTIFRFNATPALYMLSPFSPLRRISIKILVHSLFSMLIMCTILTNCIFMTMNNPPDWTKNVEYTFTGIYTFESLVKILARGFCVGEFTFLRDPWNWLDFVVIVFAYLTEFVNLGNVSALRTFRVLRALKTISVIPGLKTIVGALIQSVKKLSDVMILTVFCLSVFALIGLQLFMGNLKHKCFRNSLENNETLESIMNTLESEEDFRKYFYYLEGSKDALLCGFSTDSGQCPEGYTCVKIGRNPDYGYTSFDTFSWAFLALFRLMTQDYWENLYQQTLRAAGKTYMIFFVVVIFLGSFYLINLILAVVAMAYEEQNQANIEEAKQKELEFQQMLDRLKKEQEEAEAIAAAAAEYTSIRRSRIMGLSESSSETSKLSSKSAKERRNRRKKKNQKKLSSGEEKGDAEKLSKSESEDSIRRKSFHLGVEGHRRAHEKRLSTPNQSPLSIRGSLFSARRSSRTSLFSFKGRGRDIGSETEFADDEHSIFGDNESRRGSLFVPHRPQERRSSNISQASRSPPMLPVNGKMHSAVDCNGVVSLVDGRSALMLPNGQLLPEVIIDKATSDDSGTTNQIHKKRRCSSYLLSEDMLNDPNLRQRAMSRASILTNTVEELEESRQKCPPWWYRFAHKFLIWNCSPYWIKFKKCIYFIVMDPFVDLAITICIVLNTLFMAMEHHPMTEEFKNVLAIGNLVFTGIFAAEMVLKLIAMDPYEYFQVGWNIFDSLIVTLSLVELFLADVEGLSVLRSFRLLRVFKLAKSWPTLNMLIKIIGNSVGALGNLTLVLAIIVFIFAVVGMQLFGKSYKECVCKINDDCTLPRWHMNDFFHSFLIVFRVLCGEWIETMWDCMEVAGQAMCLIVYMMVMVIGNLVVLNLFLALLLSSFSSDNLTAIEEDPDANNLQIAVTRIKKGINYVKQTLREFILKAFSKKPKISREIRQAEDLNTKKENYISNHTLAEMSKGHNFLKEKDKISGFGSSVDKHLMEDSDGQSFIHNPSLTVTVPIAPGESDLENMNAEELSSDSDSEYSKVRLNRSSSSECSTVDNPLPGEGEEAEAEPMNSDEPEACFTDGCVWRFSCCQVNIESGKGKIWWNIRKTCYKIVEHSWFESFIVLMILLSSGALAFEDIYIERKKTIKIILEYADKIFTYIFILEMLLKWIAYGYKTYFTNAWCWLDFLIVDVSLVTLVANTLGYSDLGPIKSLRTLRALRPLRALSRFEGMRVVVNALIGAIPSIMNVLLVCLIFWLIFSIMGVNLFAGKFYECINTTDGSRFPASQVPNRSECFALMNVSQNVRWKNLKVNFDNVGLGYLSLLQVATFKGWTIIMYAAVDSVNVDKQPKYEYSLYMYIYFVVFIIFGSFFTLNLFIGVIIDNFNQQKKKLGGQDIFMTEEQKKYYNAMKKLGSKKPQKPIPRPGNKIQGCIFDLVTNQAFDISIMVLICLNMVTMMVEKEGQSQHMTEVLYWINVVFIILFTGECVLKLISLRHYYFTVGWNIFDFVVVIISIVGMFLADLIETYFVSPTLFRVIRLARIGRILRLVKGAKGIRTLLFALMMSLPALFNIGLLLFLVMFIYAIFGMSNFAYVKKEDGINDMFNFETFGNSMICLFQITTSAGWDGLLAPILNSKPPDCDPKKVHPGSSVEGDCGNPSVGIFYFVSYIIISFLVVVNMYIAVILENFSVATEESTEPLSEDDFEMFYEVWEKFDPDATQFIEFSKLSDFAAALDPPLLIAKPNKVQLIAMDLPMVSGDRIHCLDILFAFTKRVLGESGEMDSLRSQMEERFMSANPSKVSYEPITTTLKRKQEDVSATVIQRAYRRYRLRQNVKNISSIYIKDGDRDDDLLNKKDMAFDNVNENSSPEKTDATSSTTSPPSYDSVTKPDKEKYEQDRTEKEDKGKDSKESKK

Molecule = CC(C)C[C@H](NC(=O)[C@@H](NC(=O)[C@@H](N)[C@@H](C)O)C(C)C)C(=O)N1CCC[C@H]1C(=O)N1CCC[C@H]1C(=O)N1CCC[C@H]1C(=O)N1CCC[C@H]1C(=O)N[C@@H](Cc1ccc(O)cc1)C(=O)N[C@@H](CCCNC(=N)N)C(=O)N[C@@H](Cc1c[nH]cn1)C(=O)N[C@@H](CCCNC(=N)N)C(=O)N[C@@H](CC(N)=O)C(=O)O; tested on = WW domain-containing oxidoreductase, WW2 domain Y85W (WWOX, Homo sapiens, UniProt Q9NZC7, Y85W); assay = binding, ITC; conditions = pH 7.0, 25 °C; measurement = ΔG; result = -5.83 ± 0.09 kcal/mol
Molecule = COc1ccc(OCc2ccccn2)c(C=O)c1; tested on = Hemoglobin subunit alpha, with beta chain (HBA1, Homo sapiens, UniProt P69905); assay = kinetic binding, cation-exchange HPLC; conditions = 37 °C; measurement = koff; result = 0.000194 s⁻¹
Molecule = CC1=C(C(=O)OCc2ccccc2)C(c2ccc(-c3ccccc3)cc2)NC(=O)N1CCCCCC(=O)O (stereo not shown); tested on = Heat shock 70 kDa protein 1A, with Hdj2 (HSPA1A, Homo sapiens, UniProt P0DMV8); assay = ATPase activity, inhibitor; conditions = 100 µM, Hsp40-stimulated activity, together with: Hdj2 Hsp70:Hsp40 1:0.5; how to read = relative to: DMSO, negative means inhibition; measurement = fold change in activity; result = 1.5 fold
Molecule = cholecystokinin octapeptide; tested on = rat pancreatic acini; conditions = 0.1 nM, 15 min, together with: 20 µM PKCθ pseudosubstrate inhibitor for 2 h; how to read = relative to: total; measurement = amylase secretion; result = 7.4 ± 0.6%
Molecule = VV[dV]A (D-Val3); tested on = PC-12; assay = protection from Aβ1–42 toxicity, MTT; conditions = concentration not given, 6 h, Aβ to peptide ratio 1:10, together with: Aβ1–42 2 µM; how to read = relative to: untreated cells; measurement = cell viability; result = 70%
Molecule = B1 (UGT1A9); tested on = COc1cc(/C=C/C(O)=C/C(=O)/C=C/c2ccc(O)cc2)ccc1O; assay = steady-state kinetics; conditions = pH 7.4, 37 °C; measurement = Vmax; result = 0.000258 µmol/min/mg
Molecule = NC(=O)c1ccc[n+]([C@@H]2O[C@H](COP(=O)(O)OP(=O)(O)OC[C@H]3O[C@@H](n4cnc5c(N)ncnc54)[C@H](O)[C@@H]3O)[C@@H](O)[C@H]2O)c1; assay = cofactor, NADH absorbance; conditions = pH 9.0; measurement = Km; result = 313 ± 38 µM
Molecule = GCTGAATGAACTTGCTGACCCTCTGCTTTC (dsDNA); tested on = T1, NR1I2/RXRA (Homo sapiens); assay = fluorescence anisotropy competition; test system = double-stranded DNA, one strand shown; conditions = together with: DR3 FAM; measurement = Ki; result = 94.4 ± 4 nM
Molecule = CCN1CCN(C(C)C(=O)Nc2c(C)csc2C(=O)OC)CC1 (stereo not shown); tested on = Sodium channel protein type 9 subunit alpha (SCN9A, Homo sapiens, UniProt Q15858); assay = cell membrane chromatography; how to read = higher = stronger binding; measurement = capacity factor k′; result = 4.6
Molecule = CC(C)C[C@H](NC(=O)[C@@H](NC(=O)[C@@H](N)[C@@H](C)O)C(C)C)C(=O)N[C@@H](C)C(=O)N1CCC[C@H]1C(=O)N1CCC[C@H]1C(=O)N1CCC[C@H]1C(=O)N[C@@H](Cc1ccc(O)cc1)C(=O)N[C@@H](CCCNC(=N)N)C(=O)N[C@@H](Cc1c[nH]cn1)C(=O)N[C@@H](CCCNC(=N)N)C(=O)N[C@@H](CC(N)=O)C(=O)O; tested on = WW domain-containing oxidoreductase, WW1 domain (WWOX, Homo sapiens, UniProt Q9NZC7); assay = binding to WW1 domain, isothermal titration calorimetry; conditions = pH 7.0, 25 °C; measurement = entropy term TΔS; result = 1.86 ± 0.52 kcal/mol
Molecule = vasoactive intestinal peptide; tested on = rat pancreatic acini; conditions = 10 nM, 15 min, together with: 20 µM PKCθ pseudosubstrate inhibitor for 2 h; how to read = relative to: total; measurement = amylase secretion; result = 3.6 ± 0.4%
Molecule = GAGASAEEKH; assay = transducin alpha binding to UNC119, GST pulldown; test system = peptide, bovine retina lysate; conditions = concentration not given; measurement = competition of transducin alpha binding; result = no effect
Molecule = VV[Aib]A (Aib3; Aib = CC(C)(N)C(=O)O); tested on = PC-12; assay = protection from Aβ1–42 toxicity, MTT; conditions = concentration not given, 6 h, Aβ to peptide ratio 1:10, together with: Aβ1–42 2 µM; how to read = relative to: untreated cells; measurement = cell viability; result = 73.3%
Molecule = CC(=O)N[C@@H](Cc1ccccc1)C(=O)N[C@H](Cc1cccc2ccccc12)C(=O)N[C@@H](CCCNC(=N)N)C(=O)N[C@@H](Cc1c[nH]c2ccccc12)C(N)=O; tested on = Melanocortin receptor 3 (Mus musculus, UniProt P33033); assay = receptor activity, agonist, cell-based; conditions = up to 100 µM, Schild antagonism analysis; measurement = agonist and antagonist activity; result = inactive
Molecule = CCCCCCCCCC[N+](C)(C)Cc1ccccc1; assay = ω-hydroxylation, substrate; test system = human liver microsomes; conditions = together with: NADPH; measurement = Km; result = 0.69 µM
Molecule = O=C(CSc1nnc(NCc2ccccc2)s1)NCC1CCCCC1; tested on = mouse hippocampal CA1 neurons; assay = NMDA receptor EPSC; conditions = 3 µM, holding +40 mV; how to read = relative to: baseline; measurement = inhibition; result = 16 ± 3%

Some of these lines once more:
Molecule = CC(=O)N[C@@H](Cc1ccccc1)C(=O)N[C@H](Cc1cccc2ccccc12)C(=O)N[C@@H](CCCNC(=N)N)C(=O)N[C@@H](Cc1c[nH]c2ccccc12)C(N)=O; tested on = Melanocortin receptor 3 (Mus musculus, UniProt P33033); assay = receptor activity, agonist, cell-based; conditions = up to 100 µM, Schild antagonism analysis; measurement = agonist and antagonist activity; result = inactive
